Published values pooled from the literature.
Lines come from different studies, so protocols differ. ± gives the spread as reported.

Compound | test system | setting | tissue uptake [%ID/g]
CCCC[C@H](NC(=O)CNC(=O)CNC(=O)CN1CCN(CC(=O)O)CCN(CC(=O)O)CC1)C(=O)N[C@H]1CC(=O)NCCCC[C@@H](C(N)=O)NC(=O)[C@H](Cc2c[nH]c3ccccc23)NC(=O)[C@H](CCCNC(=N)N)NC(=O)[C@@H](Cc2ccccc2)NC(=O)[C@H](Cc2c[nH]cn2)NC1=O [technetium-99m labelled] | C57 mouse, muscle | iv, 0.037 MBq, 0.5 h | 0.19 ± 0.06
CCCC[C@H](NC(=O)CCCCCCCNC(=O)CN1CCN(CC(=O)O)CCN(CC(=O)O)CC1)C(=O)N[C@H]1CC(=O)NCCCC[C@@H](C(N)=O)NC(=O)[C@H](Cc2c[nH]c3ccccc23)NC(=O)[C@H](CCCNC(=N)N)NC(=O)[C@@H](Cc2ccccc2)NC(=O)[C@H](Cc2c[nH]cn2)NC1=O [copper-64 labelled] | C57 mice, heart | intravenous, 0.37 MBq, 2 h | 0.18 ± 0.05
N=C(N)NCCC[C@@H]1NC(=O)[C@H](CCCCNC(=O)CNC(=O)CNC(=O)CNC(=O)CC[C@H](NC(=O)CNC(=O)CNC(=O)CNC(=O)CC[C@H](NC(=O)CN2CCN(CC(=O)O)CCN(CC(=O)O)CCN(CC(=O)O)CC2)C(=O)NCC(=O)NCC(=O)NCC(=O)N[C@@H](CCC(=O)NCC(=O)NCC(=O)NCC(=O)NCCCC[C@@H]2NC(=O)[C@@H](Cc3ccccc3)NC(=O)[C@H](CC(=O)O)NC(=O)CNC(=O)[C@H](CCCNC(=N)N)NC2=O)C(=O)NCC(=O)NCC(=O)NCC(=O)NCCCC[C@@H]2NC(=O)[C@@H](Cc3ccccc3)NC(=O)[C@H](CC(=O)O)NC(=O)CNC(=O)[C@H](CCCNC(=N)N)NC2=O)C(=O)NCC(=O)NCC(=O)NCC(=O)NCCCC[C@@H]2NC(=O)[C@@H](Cc3ccccc3)NC(=O)[C@H](CC(=O)O)NC(=O)CNC(=O)[C@H](CCCNC(=N)N)NC2=O)NC(=O)[C@@H](Cc2ccccc2)NC(=O)[C@H](CC(=O)O)NC(=O)CNC1=O [indium-111 labelled] | female athymic nu/nu mice, intestine | intravenous, 72 h | 8.31 ± 2.14
CCCC[C@H](NC(=O)CNC(=O)CNC(=O)CN1CCN(CC(=O)O)CCN(CC(=O)O)CCN(CC(=O)O)CC1)C(=O)N[C@H]1CC(=O)NCCCC[C@@H](C(N)=O)NC(=O)[C@H](Cc2c[nH]c3ccccc23)NC(=O)[C@H](CCCNC(=N)N)NC(=O)[C@@H](Cc2ccccc2)NC(=O)[C@H](Cc2c[nH]cn2)NC1=O [lutetium-177 labelled] | C57 mouse, female, bone | intravenous, 0.037 MBq, 2 h | 0.34 ± 0.1
N=C(N)NCCC[C@@H]1NC(=O)[C@H](CCCCNC(=O)CNC(=O)CNC(=O)CNC(=O)CC[C@H](NC(=O)CNC(=O)CNC(=O)CNC(=O)CN2CCN(CC(=O)O)CCN(CC(=O)O)CCN(CC(=O)O)CC2)C(=O)NCC(=O)NCC(=O)NCC(=O)NCCCC[C@@H]2NC(=O)[C@@H](Cc3ccccc3)NC(=O)[C@H](CC(=O)O)NC(=O)CNC(=O)[C@H](CCCNC(=N)N)NC2=O)NC(=O)[C@@H](Cc2ccccc2)NC(=O)[C@H](CC(=O)O)NC(=O)CNC1=O [indium-111 labelled] | female athymic nu/nu mice, lungs | intravenous, 24 h | 0.75 ± 0.02
N=C(N)NCCC[C@@H]1NC(=O)[C@H](CCCCNC(=O)CNC(=O)CNC(=O)CNC(=O)CC[C@H](NC(=O)CNC(=O)CNC(=O)CNC(=O)CN2CCN(CC(=O)O)CCN(CC(=O)O)CCN(CC(=O)O)CC2)C(=O)NCC(=O)NCC(=O)NCC(=O)NCCCC[C@@H]2NC(=O)[C@@H](Cc3ccccc3)NC(=O)[C@H](CC(=O)O)NC(=O)CNC(=O)[C@H](CCCNC(=N)N)NC2=O)NC(=O)[C@@H](Cc2ccccc2)NC(=O)[C@H](CC(=O)O)NC(=O)CNC1=O [copper-64 labelled] | athymic nu/nu mouse, female, muscle | intravenous, 0.5 h | 1.61 ± 0.66
CC(C)C[C@H](NC(=O)[C@@H](CCCCNC(=O)CCCCCNC(=O)CN1CCN(CC(=O)O)CCN(CC(=O)O)CCN(CC(=O)O)CC1)NC(=O)[C@H](Cc1ccc(O)cc1)NC(=O)[C@H](CO)NC(=O)[C@H](Cc1c[nH]c2ccccc12)NC(=O)[C@H](Cc1cnc[nH]1)NC(=O)[C@@H]1CCC(=O)N1)C(=O)N[C@@H](CCCNC(=N)N)C(=O)N1CCC[C@H]1C(=O)NCC(N)=O [indium-111 labelled] | female athymic nude mouse, kidneys | intravenous, 0.037 MBq, 4 h | 9.28 ± 1.18
CCCC[C@H](NC(=O)COCCOCCNC(=O)CN1CCN(CC(=O)O)CCN(CC(=O)O)CC1)C(=O)N[C@H]1CC(=O)NCCCC[C@@H](C(N)=O)NC(=O)[C@H](Cc2c[nH]c3ccccc23)NC(=O)[C@H](CCCNC(=N)N)NC(=O)[C@@H](Cc2ccccc2)NC(=O)[C@H](Cc2c[nH]cn2)NC1=O [copper-64 labelled] | C57 mice, muscle | intravenous, 0.37 MBq, 2 h | 0.08 ± 0.06
N=C(N)NCCC[C@@H]1NC(=O)[C@H](CCCCNC(=O)CC[C@H](NC(=O)CC[C@H](NC(=O)CN2CCN(CC(=O)O)CCN(CC(=O)O)CCN(CC(=O)O)CC2)C(=O)N[C@@H](CCC(=O)NCCCC[C@@H]2NC(=O)[C@@H](Cc3ccccc3)NC(=O)[C@H](CC(=O)O)NC(=O)CNC(=O)[C@H](CCCNC(=N)N)NC2=O)C(=O)NCCCC[C@@H]2NC(=O)[C@@H](Cc3ccccc3)NC(=O)[C@H](CC(=O)O)NC(=O)CNC(=O)[C@H](CCCNC(=N)N)NC2=O)C(=O)NCCCC[C@@H]2NC(=O)[C@@H](Cc3ccccc3)NC(=O)[C@H](CC(=O)O)NC(=O)CNC(=O)[C@H](CCCNC(=N)N)NC2=O)NC(=O)[C@@H](Cc2ccccc2)NC(=O)[C@H](CC(=O)O)NC(=O)CNC1=O [indium-111 labelled] | female athymic nu/nu mice, bone | intravenous, 72 h | 0.75 ± 0.09
CC(C)C[C@H](NC(=O)[C@H](Cc1ccc(O)cc1)NC(=O)[C@@H](CCCNC(=N)N)NC(=O)[C@@H](CO)NC(=O)[C@H](Cc1ccccc1)NC(=O)[C@H](CC1CCCCC1)NC(=O)[C@H](CC(=O)O)NC(=O)CN1CCCN2CCN(CCCN(CC(=O)O)CC2)CC1)C(=O)N[C@@H](Cc1c[nH]c2ccccc12)C(=O)N[C@@H](CO)C(=O)O [copper-64 labelled] | female NMRI nude mice, brain | 22 h p.i. | 0.1 ± 0.1

A few entries again:
Compound | test system | setting | tissue uptake [%ID/g]
CCCC[C@H](NC(=O)CNC(=O)CNC(=O)CN1CCN(CC(=O)O)CCN(CC(=O)O)CCN(CC(=O)O)CC1)C(=O)N[C@H]1CC(=O)NCCCC[C@@H](C(N)=O)NC(=O)[C@H](Cc2c[nH]c3ccccc23)NC(=O)[C@H](CCCNC(=N)N)NC(=O)[C@@H](Cc2ccccc2)NC(=O)[C@H](Cc2c[nH]cn2)NC1=O [lutetium-177 labelled] | C57 mouse, female, bone | intravenous, 0.037 MBq, 2 h | 0.34 ± 0.1
